Results of several laboratories.
Several values in a cell are separate wells, animals, samples, runs or records. ± marks the error that the study gave.

COc1ccc([C@@H]2CC(=O)c3c(O)cc(O[C@@H]4O[C@H](CO)[C@@H](O)[C@H](O)[C@H]4O[C@@H]4O[C@@H](C)[C@H](O)[C@@H](O)[C@H]4O)cc3O2)cc1O  cumulative urinary excretion (male Sprague-Dawley rats, obese, urine; oral, 100 mg/kg, 48 h): 71.2 ± 12.3 ng
COc1c(N2CC3CCCNC3C2)c(F)cc2c(=O)c(C(=O)OCc3ccc([N+](=O)[O-])cc3)cn(C3CC3)c12 (stereo not drawn)  reduction potential (cyclic voltammetry; anhydrous acetonitrile; concentration not given; reference: Ag/AgCl): -0.96 V
CCN(CCCCOc1ccc(CCC(=O)N2CCC(Cc3ccccc3)CC2)cc1OC)Cc1ccccc1  excreted amount (Sprague-Dawley rats, both sexes, urine; oral gavage, 25 mg/kg, 24 to 48 h): 243 ± 89.4 ng
NC1CCN(C(=O)Oc2ccc(C3CCCC4(C3)OOC3(O4)C4CC5CC(C4)CC3C5)cc2)CC1 (racemic)  clearance (male ICR mice, plasma; intravenous, 10 mg/kg): 147 mL/min/kg
CCn1ccc(-c2cc([C@@H](C)NC(=O)c3cc(N4CCN(C)CC4)ccc3C)c3ccccc3n2)n1  viability (Vero E6; 31.25 µM): 19.5% and 38.2% and 25.6%
COC(=O)[C@H](Cc1ccc(-c2ccccc2)cc1)NC(=O)c1ccc(-c2ccc(OP(=O)(O)O)cc2)cc1  critical micelle concentration (PBS; pH 7.4, before phosphatase treatment): 46.1 µM
O=C1NC2(CC2)COc2ncc(F)cc2[C@H]2COCCN2c2ccn3ncc1c3n2  organ-to-body weight ratio (Sprague-Dawley rat, female, spleen; oral, 10 mg/kg/day, 4 weeks dosing, end of recovery): 0.271 ± 0.041%
CC[C@H](C)[C@@H]1NC(=O)[C@H](Cc2ccc(O)cc2)NC(=O)CCCSC[C@@H](C(=O)N(CC(=O)N[C@@H](CC(C)C)C(=O)NCC(N)=O)Cc2ccc(F)cc2)NC(=O)[C@H](CC(N)=O)NC(=O)[C@H](CCC(N)=O)NC1=O  deaths (human; intranasal, 400 µg single dose): 0%
CC[C@H](C)[C@H](NC(=O)[C@H](CCCNC(=N)N)NC(=O)[C@H](CCCNC(=N)N)NC(=O)[C@H](CC(C)C)NC(=O)[C@H](Cc1c[nH]c2ccccc12)NC(=O)[C@H](CCCCN)NC(=O)[C@H](CCCNC(=N)N)NC(=O)[C@H](CCCCN)NC(=O)[C@H](CCCNC(=N)N)NC(=O)[C@H](CCCNC(=N)N)NC(=O)CN)C(=O)NCC(=O)N[C@@H](CCCCN)C(=O)NCC(=O)N[C@H](C(=O)N[C@@H](CCCCN)C(=O)N[C@H](C(=O)N[C@H](C(=O)NCC(=O)NCC(=O)N[C@@H](C)C(=O)N[C@@H](C)C(=O)N[C@@H](CC(C)C)C(=O)N[C@@H](CC(=O)O)C(=O)N[C@@H](Cc1c[nH]cn1)C(=O)N[C@@H](CC(C)C)C(N)=O)[C@@H](C)CC)[C@@H](C)CC)C(C)C  acute toxic concentration (zebrafish embryos 4 hpf, E3 medium; 1 h): 5 µM
C=Cc1c(C)c2cc3nc(c(CC(=O)O)c4[nH]c(cc5nc(cc1[nH]2)C(C)=C5CC)c(C)c4C(=O)O)[C@@H](CCC(=O)NCCCC[C@H](NC(C)=O)C(=O)N[C@@H](Cc1ccccc1)C(=O)N[C@@H](Cc1ccccc1)C(=O)N[C@H](C(=O)N[C@@H](CC(C)C)C(=O)N[C@@H](CCCCN)C(=O)N[C@@H](CO)C(=O)NCC(=O)N[C@@H](CCC(N)=O)C(=O)NCC(=O)N[C@@H](Cc1ccc(O)cc1)C(=O)N[C@@H](CCCNC(=N)N)C(=O)N[C@@H](Cc1c[nH]c2ccccc12)C(=O)N[C@@H](CC(=O)O)C(=O)N[C@@H](CO)C(=O)N[C@@H](Cc1ccc(O)cc1)C(=O)N[C@@H](CCCNC(=N)N)C(=O)N[C@@H](Cc1c[nH]c2ccccc12)C(=O)N[C@@H](Cc1c[nH]cn1)C(=O)N1CCC[C@H]1C(=O)N[C@@H](CO)C(=O)N[C@@H](CS)C(=O)N[C@@H](C)C(=O)N[C@@H](CS)C(=O)NCC(=O)NCC(=O)N[C@@H](CO)C(=O)N[C@@H](CCCCN)C(N)=O)C(C)C)[C@@H]3C  TNF level (mouse, 4T1 breast tumour, serum; concentration not given, 21 days after single dose): 40.7 pg/mL and 41.2 pg/mL and 36.6 pg/mL
CC1(C)C(=O)N(c2ccc(C#N)c(C(F)(F)F)c2)C(=S)N1c1ccc(C(N)=O)c(F)c1  AUC(0-t) (human, male, plasma; oral, 80 mg, single dose, fasting): 147 ± 43.1 µg·h/mL
N#[11C]c1ccc(-c2csc(NN=C3CCCC3)n2)cc1  peak radioactivity uptake (dynamic PET/CT; C57BL/6 mouse, heart; intravenous, dose not given, 1.0 min): 1.8 SUV
Cc1ccc(OCCN(C)C)cc1C(=O)N[C@H](C)c1cc(-c2ccco2)nc2ccccc12  viability (Vero E6; 125 µM): -3.46% and 4.23%
CC(C)[C@@H]1NC(=O)CNC(=O)[C@H](CC(N)=O)NC(=O)[C@H](CCCNC(=N)N)NC(=O)[C@H](Cc2ccc(O)cc2)NC(=O)[C@H](C(C)C)NC(=O)[C@@H](NC(=O)[C@@H](NC(=O)[C@H](CC(N)=O)NC(=O)[C@H](Cc2c[nH]c3ccccc23)NC(=O)[C@H](C)NC(=O)[C@H](Cc2ccccc2)NC(=O)CNC(=O)[C@H](CCCCN)NC(=O)[C@H](Cc2ccccc2)NC(=O)[C@H](Cc2ccccc2)NC(=O)[C@H](CCCCN)NC(=O)OCC2c3ccccc3-c3ccccc32)C(C)C)CSSC[C@@H](C(=O)N[C@@H](Cc2c[nH]cn2)C(=O)N[C@@H](CCCNC(=N)N)C(=O)N[C@@H](CCCNC(=N)N)C(=O)N[C@@H](C)C(=O)N[C@@H](CC(N)=O)C(N)=O)NC(=O)[C@H](C(C)C)NC(=O)[C@H](CCCNC(=N)N)NC1=O  peptide remaining (HPLC; trypsin buffer; 4.00 h, 37 °C, with: trypsin 1 % w/v): 49.6% and 42.8% and 39.8%
CC[C@H](C)[C@H](NC(=O)[C@H](CCCCN)NC(=O)CNC(=O)[C@H](CC(C)C)NC(=O)[C@H](Cc1ccccc1)NC(=O)[C@H](CCCCN)NC(=O)[C@H](CO)NC(=O)[C@H](Cc1ccccc1)NC(=O)[C@H](Cc1c[nH]c2ccccc12)NC(=O)[C@H](CCC(N)=O)NC(=O)[C@@H](NC(=O)[C@H](Cc1ccccc1)NC(=O)CCCCCNC(=O)CN1CCN(CC(=O)O)CCN(CC(=O)O)CCN(CC(=O)O)CC1)C(C)C)C(=O)N[C@@H](CCC(=O)O)C(=O)N1CCC[C@H]1C(=O)N[C@@H](CC(=O)O)C(=O)N[C@H](C(=O)N[C@@H](CO)C(=O)N[C@@H](CCC(N)=O)C(=O)N[C@H](C(=O)N[C@@H](CCC(N)=O)C(=O)N[C@@H](CC(=O)O)C(=O)N1CCC[C@H]1C(=O)N[C@@H](CC(N)=O)C(=O)N[C@@H](CC(=O)O)C(=O)N[C@@H](CCC(N)=O)C(=O)N[C@@H](Cc1ccc(O)cc1)C(=O)N[C@@H](CCC(=O)O)C(=O)N1CCC[C@H]1C(=O)N[C@@H](Cc1ccccc1)C(=O)O)C(C)C)C(C)C [copper-64 labelled]  tissue uptake (C57BL/6 mice, kidneys; vehicle, intratracheal instillation): 20.6 ± 2.9 %ID/g

Repeated from above:
CC(C)[C@@H]1NC(=O)CNC(=O)[C@H](CC(N)=O)NC(=O)[C@H](CCCNC(=N)N)NC(=O)[C@H](Cc2ccc(O)cc2)NC(=O)[C@H](C(C)C)NC(=O)[C@@H](NC(=O)[C@@H](NC(=O)[C@H](CC(N)=O)NC(=O)[C@H](Cc2c[nH]c3ccccc23)NC(=O)[C@H](C)NC(=O)[C@H](Cc2ccccc2)NC(=O)CNC(=O)[C@H](CCCCN)NC(=O)[C@H](Cc2ccccc2)NC(=O)[C@H](Cc2ccccc2)NC(=O)[C@H](CCCCN)NC(=O)OCC2c3ccccc3-c3ccccc32)C(C)C)CSSC[C@@H](C(=O)N[C@@H](Cc2c[nH]cn2)C(=O)N[C@@H](CCCNC(=N)N)C(=O)N[C@@H](CCCNC(=N)N)C(=O)N[C@@H](C)C(=O)N[C@@H](CC(N)=O)C(N)=O)NC(=O)[C@H](C(C)C)NC(=O)[C@H](CCCNC(=N)N)NC1=O  peptide remaining (HPLC; trypsin buffer; 4.00 h, 37 °C, with: trypsin 1 % w/v): 49.6% and 42.8% and 39.8%
N#[11C]c1ccc(-c2csc(NN=C3CCCC3)n2)cc1  peak radioactivity uptake (dynamic PET/CT; C57BL/6 mouse, heart; intravenous, dose not given, 1.0 min): 1.8 SUV
